{"data": "Assay results collected from several papers", "note": "Each line is one published result; not all experiments were run side by side."}
{"Structure (SMILES)": "CN1CC[C@@H](c2c(O)cc(O)c3c(=O)cc(-c4ccc(C(F)(F)F)cc4Cl)oc23)[C@@H]1CO", "assay": "measured: Anemia", "system": "relapsed AML", "conditions": "oral, 200 mg, grade 3-4, intermittent dosing", "endpoint": "patients with adverse event", "result": "30%"}
{"Structure (SMILES)": "CCN(CCO)CCCC(C)Nc1ccnc2cc(Cl)ccc12 (stereo not drawn)", "assay": "measured: Dizziness grade 1", "system": "newly diagnosed glioblastoma patients", "conditions": "oral, 200 mg/dose, with radiotherapy and temozolomide", "endpoint": "patients with adverse event", "result": "66%"}
{"Structure (SMILES)": "Nc1nc2cc(-c3ccc4ncc(C(=O)N5CCOCC5)n4c3)ccc2o1", "assay": "all-cause adverse events, grade ≥3", "system": "patients with advanced solid tumours", "conditions": "dose not given", "endpoint": "patients with adverse events", "result": "54%"}
{"Structure (SMILES)": "C=CCNc1c(O)cc2c(O)c1C[C@@H](C)C[C@H](OC)[C@H](O)[C@@H](C)/C=C(\\C)[C@H](OC(N)=O)[C@@H](OC)/C=C\\C=C(/C)C(=O)N2", "system": "unresectable or metastatic sarcoma", "conditions": "intravenous, 90 mg/m^2, grade 3-4 lab change", "endpoint": "patients with lipase increase", "result": "17%"}
{"Structure (SMILES)": "CC(=O)c1c(C)c2cnc(Nc3ccc(C4CCN(CCS(C)(=O)=O)CC4)cn3)nc2n(C2CCCC2)c1=O", "system": "HR+/HER2- advanced breast cancer patients", "conditions": "oral, 100 mg twice daily, grade 3/4,, monotherapy", "endpoint": "patients with GGT increased", "result": "0%"}
{"Structure (SMILES)": "CO[C@H]1C[C@@H]2CC[C@@H](C)[C@@](O)(O2)C(=O)C(=O)N2CCCC[C@H]2C(=O)O[C@H]([C@H](C)C[C@@H]2CC[C@@H](OC(=O)NCCOCCOCCOCCOCCOCCOCCOCCOCCC(=O)N3CCc4cc(Cn5nc(-c6ccc7oc(N)nc7c6)c6c(N)ncnc65)ccc4C3)[C@H](OC)C2)C[C@@H](O)[C@H](C)/C=C(\\C)[C@@H](O)[C@@H](OC)C(=O)[C@H](C)C[C@H](C)/C=C/C=C/C=C/1C", "assay": "measured: treatment-related mucositis", "system": "patients with advanced solid tumours", "conditions": "intravenous, 8 to 12 mg, DM alone without TM, weekly", "endpoint": "patients with AE", "result": "65%"}
{"Structure (SMILES)": "C[C@@H]1OC(=O)NN=C1c1ccc(-c2ccc(F)cc2)c(C(F)(F)F)c1", "system": "patients, phase I trial", "conditions": "oral, dose not given, all arms, any grade TEAE", "endpoint": "patients with back pain", "result": "20%"}
{"Structure (SMILES)": "O=C1Nc2cc3[nH]nc(-c4ccncc4)c3cc2CN1Cc1ccccc1", "assay": "CTCAE v4.03", "system": "advanced solid tumour patients", "conditions": "intravenous, 7.2 mg/kg, schedules 1/2", "endpoint": "patients with abdominal pain", "result": "40%"}
{"Structure (SMILES)": "N[C@@H]1c2ccccc2OC12CCN(c1cnc3c(N4CCCc5ncccc54)n[nH]c3n1)CC2", "system": "advanced solid tumour patients", "conditions": "oral, 50 mg once daily", "endpoint": "patients with serious TEAE", "result": "33.3%"}
{"note": "Excerpt of the above:"}
{"Structure (SMILES)": "CCN(CCO)CCCC(C)Nc1ccnc2cc(Cl)ccc12 (stereo not drawn)", "assay": "measured: Dizziness grade 1", "system": "newly diagnosed glioblastoma patients", "conditions": "oral, 200 mg/dose, with radiotherapy and temozolomide", "endpoint": "patients with adverse event", "result": "66%"}
